# Published values gathered from unrelated publications.
# Parts stem from different laboratories: compare values within a part only.

# Series 1 — technique: RNA Bind-n-Seq; form: RNA; matrix: in vitro; tested at: 1 µM; notes: whole 134-nt RNA, ends assumed; added: 150 mM KCl; relative to: input library; direction: higher = stronger binding
# Target: Ras GTPase-activating protein-binding protein 1, RRM domain (G3BP1, Homo sapiens, UniProt Q13283)
# Sequence of UniProt Q13283 (whole entry, looked up): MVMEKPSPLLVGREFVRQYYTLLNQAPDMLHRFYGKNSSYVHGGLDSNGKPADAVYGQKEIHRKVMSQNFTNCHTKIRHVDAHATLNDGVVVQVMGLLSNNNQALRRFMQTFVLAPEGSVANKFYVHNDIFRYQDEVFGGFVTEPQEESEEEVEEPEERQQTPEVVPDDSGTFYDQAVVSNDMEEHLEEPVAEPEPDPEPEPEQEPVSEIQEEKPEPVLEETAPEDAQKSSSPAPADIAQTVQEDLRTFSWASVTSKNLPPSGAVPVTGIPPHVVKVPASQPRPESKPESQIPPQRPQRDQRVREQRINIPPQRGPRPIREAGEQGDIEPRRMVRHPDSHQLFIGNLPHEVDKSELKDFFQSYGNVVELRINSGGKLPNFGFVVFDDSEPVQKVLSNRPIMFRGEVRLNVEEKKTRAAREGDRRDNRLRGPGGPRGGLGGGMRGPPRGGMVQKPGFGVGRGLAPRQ
Sequence,log2 enrichment
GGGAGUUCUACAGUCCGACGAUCUUUGCAGGGAGUGGUACGGGUAUCACUUUCCGGAGCUGGUGAAGAUCAUCAACGACAAUGCCACAUACUGCCGUCUUGCCCAGUUUAUUGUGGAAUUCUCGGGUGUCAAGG,-0.145
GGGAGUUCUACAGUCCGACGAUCGUCCUGUGCUACACAUCGUAUGUACCGAAUCGGGGUUUUUGGGGUUUUUGGUUUUUGGGAAAGUAUUAUGUUACGCCGUUCGGAUCUGCAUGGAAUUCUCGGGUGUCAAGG,-0.283
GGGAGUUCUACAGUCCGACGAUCAGUCCUGUGCUACACAUCGUAUGUACCGAAUCGGAAAAAGGAAAAAAAGGAAAAAGGAAAGUAUUAUGUUACGCCGUUCGGAUCUGCACUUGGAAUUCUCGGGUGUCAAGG,0.0361
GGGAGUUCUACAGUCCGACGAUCGCAGAAAGUAAAAACAAAUGGAAAUGCUUCGGAUAGUGGCAGGGGUGGGGGUUGCUAAGGAAAGGGUGGGAUGGGAGUGGGUAAAGAGUUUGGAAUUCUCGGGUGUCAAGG,1.13
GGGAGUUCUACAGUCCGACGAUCUCCUGUGCUACACAUCGUAUGUACCGAAUCGGGGAAAAAAAGGGGAAAGGGGAAAGGGGAAAGUAUUAUGUUACGCCGUUCGGAUCUGCAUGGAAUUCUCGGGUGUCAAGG,1
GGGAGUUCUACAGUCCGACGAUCGUCCUGUGCUACACAUCGUAUGUACCGAAUCGGAAAAAAGGAAAAAAGGGGAAAAAAGGAAAGUAUUAUGUUACGCCGUUCGGAUCUGCAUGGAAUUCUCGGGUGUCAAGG,0.0736
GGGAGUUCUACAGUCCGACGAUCCAAGUCCUGUGCUACACAUCGUAUGUACCGAAUCGGUUUGGGGUUUGGGGUUUGGGAAAGUAUUAUGUUACGCCGUUCGGAUCUGCACUUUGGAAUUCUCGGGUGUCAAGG,-0.248
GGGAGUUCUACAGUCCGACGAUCACCAUGCAGGUGGGCAUCUUUGGGAAGUGGGGCAAGGGGGGGAUAGGGAGGGGGGUAACACUUCGGGAACAGGUGGUCCCAGGUCGUUUCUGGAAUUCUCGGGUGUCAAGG,0.806
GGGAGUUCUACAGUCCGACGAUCGCAGGAAGUAAAAACAAAUGGAAAUGCUUCGGAUAGUGGCAGGGGUGGGGGUUGCUAAGGAAAGGGUGGGAUGGGAUUGGGUAAAGAGUUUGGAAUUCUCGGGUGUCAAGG,1.45
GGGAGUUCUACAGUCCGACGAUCUUUGAGGUCAAACGCCGCGGGGAACUGCAGCUGAUUAAGAUCUUCCAAUCCUCGGUGUUUGAGGCCUUCCUCAAGGGCAGCACGCUGGAAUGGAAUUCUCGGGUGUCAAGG,-0.286

# Series 2 — technique: protein-binding microarray; form: hairpin DNA; matrix: in vitro; tested at: not given; relative to: not given; direction: higher = stronger binding
# Target: Homeobox protein Hox-C11, full length (HOXC11, Homo sapiens, UniProt O43248, residues 1-304)
# Sequence of UniProt O43248 (whole entry, looked up): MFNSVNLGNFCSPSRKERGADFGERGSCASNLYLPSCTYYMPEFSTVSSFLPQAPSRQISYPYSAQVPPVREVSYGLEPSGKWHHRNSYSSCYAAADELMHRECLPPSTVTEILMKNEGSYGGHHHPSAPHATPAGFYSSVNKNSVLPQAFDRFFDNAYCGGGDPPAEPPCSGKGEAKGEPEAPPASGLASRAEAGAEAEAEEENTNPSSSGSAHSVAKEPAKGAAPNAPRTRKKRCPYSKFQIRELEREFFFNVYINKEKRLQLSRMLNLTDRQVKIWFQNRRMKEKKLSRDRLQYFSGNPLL
# Notes: whole hairpin DNA, median over replicate spots
Sequence,median fluorescence [a.u.]
GAGGCCAGGTCGTAAGAGCCTCCTGGCTCTTACGACCTGGCCTCACACTC (5mC at 29),10600
GAGGCCACGTCGTAAAAGCCTCCTGGCTTTTACGACGTGGCCTCACACTC (5mC at 8 36),8970
GAGGCCAGGCGGTAAAAGCCTCCTGGCTTTTACCGCCTGGCCTCACACTC (5mC at 34),10100
GAGGCCAGGTCTTAAAAGCCTCCTGGCTTTTAAGACCTGGCCTCACACTC,7850
GAGGCCCGGTCGTTAAAGCCTCCTGGCTTTAACGACCGGGCCTCACACTC (5mC at 7),10100
GAGGCCCGGTCGTAAAAGCCTCCTGGCTTTTACGACCGGGCCTCACACTC (5mC at 37),10600
GAGGCCAGGCGGTTAAAGCCTCCTGGCTTTAACCGCCTGGCCTCACACTC (5mC at 10 34),9060
GAGGCCATGTCGTTAAAGCCTCCTGGCTTTAACGACATGGCCTCACACTC,9290
GAGGCCAGGGCGTAAAAGCCTCCTGGCTTTTACGCCCTGGCCTCACACTC,9770
GAGGCCAGCGCGTTAAAGCCTCCTGGCTTTAACGCGCTGGCCTCACACTC (5mC at 9 35),9710
GAGGCCAGGTCGTAAAGGCCTCCTGGCCTTTACGACCTGGCCTCACACTC (5mC at 28),10600
GAGGCCACGTCGTTAAAGCCTCCTGGCTTTAACGACGTGGCCTCACACTC,9180
GAGGCCAGGTCGTTACGGCCTCCTGGCCGTAACGACCTGGCCTCACACTC (5mC at 28),11500
GAGGCCAGGTCGGAAAAGCCTCCTGGCTTTTCCGACCTGGCCTCACACTC,10700
GAGGCCAGGTCGCGAAAGCCTCCTGGCTTTCGCGACCTGGCCTCACACTC (5mC at 13),10800
GAGGCCAGGTCGTAAACGCCTCCTGGCGTTTACGACCTGGCCTCACACTC,11400
GAGGCCACGTCGTAAAAGCCTCCTGGCTTTTACGACGTGGCCTCACACTC,9230

# Series 3 — technique: protein-binding microarray; form: double-stranded DNA, one strand shown; matrix: in vitro; tested at: 0.8 µM; notes: whole 60-bp probe, no competitor; direction: higher = stronger binding
# Target: Centromere-binding protein 1, full length, N-terminal tag (CBF1, Saccharomyces cerevisiae, UniProt P17106, residues 1-351)
# Sequence of UniProt P17106 (whole entry, looked up): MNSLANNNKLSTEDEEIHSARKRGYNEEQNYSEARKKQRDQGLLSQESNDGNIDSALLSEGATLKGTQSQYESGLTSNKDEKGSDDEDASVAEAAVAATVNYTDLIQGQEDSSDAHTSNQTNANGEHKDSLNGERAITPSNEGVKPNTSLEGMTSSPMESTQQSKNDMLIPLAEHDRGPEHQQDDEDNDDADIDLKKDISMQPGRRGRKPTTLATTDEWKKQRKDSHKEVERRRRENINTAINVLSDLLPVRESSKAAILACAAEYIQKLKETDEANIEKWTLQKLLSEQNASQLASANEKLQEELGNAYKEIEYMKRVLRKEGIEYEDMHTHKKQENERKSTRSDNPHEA
Sequence,fluorescence intensity [a.u.]
CTAAATGGACGACTCCACGTTGTAGTAGTTGTCTTCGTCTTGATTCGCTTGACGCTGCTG,502
TGTACGAAGCTATGCCGCGTGATTATAGTAGTTAGGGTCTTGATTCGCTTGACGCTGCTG,919
GAAAATGCCTCGGGAGCCACCACGTTTATTTTTTAGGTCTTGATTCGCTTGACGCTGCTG,573
GAATACTGGAAGCACCACGTAATAGTGGAAAAGTAGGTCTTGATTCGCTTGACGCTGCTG,532
CTACCCCCTCATCGTGATGTAGTCAACCCTCTTTTCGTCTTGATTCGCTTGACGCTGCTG,523
CTATGTTGAATGTGACACGTAACTCTAGGCCATTTCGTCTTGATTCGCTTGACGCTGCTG,641
GAATAATTGTGTTATCACCTGCTATTTTTCTTTTAGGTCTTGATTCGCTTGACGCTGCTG,953
GAAGACAATTGTTGCCTCGTGGCGGGGCTATTTTAGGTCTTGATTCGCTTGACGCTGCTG,574
GAAATCATCATGACGCACGATATCAATTCTTTGTAGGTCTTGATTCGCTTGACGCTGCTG,608
CTATTTGACATTTGTCTCATGACCACGACATTGTTCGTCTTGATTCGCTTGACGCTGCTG,1050
GAAAAACAATGGCGTGGGGTGATGAAATAAGCATAGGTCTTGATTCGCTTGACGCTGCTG,570
GAAGGACCCGTTTATTGCGTGTTAACAACTGTATAGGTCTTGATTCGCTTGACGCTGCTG,531
GAATTCACTGATATGGACGTGGTATGCGGAGATTAGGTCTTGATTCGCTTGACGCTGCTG,567
GAATCTGTGAGGCAACTCGTGATTTCGAAACAATAGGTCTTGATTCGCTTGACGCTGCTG,1430
GAATGGTGAATTTACAACGTGTTCAATATACTTTAGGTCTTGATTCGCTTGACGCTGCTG,672
GAATCTATCATGCCTGACGTTCTCGAACGATACTAGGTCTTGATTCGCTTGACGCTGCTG,531
CTACTGGCAAAACACCACCAAAGCCAGCCAAATTTCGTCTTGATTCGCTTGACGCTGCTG,527
GAAAATATTCCGATGTACGTGTGTGTGGCTGATTAGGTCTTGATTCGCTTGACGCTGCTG,549

# Series 4 — technique: RNA Bind-n-Seq; form: RNA; matrix: in vitro; tested at: 365 nM; relative to: no-protein control; direction: higher = stronger binding
# Target: RNA binding protein fox-1 homolog 2, RRM domain, GST-SBP tag (RBFOX2, Homo sapiens, UniProt O43251-10, residues 100-194)
# Notes: natural RNA segment, single round, ends assumed
# Construct (chain): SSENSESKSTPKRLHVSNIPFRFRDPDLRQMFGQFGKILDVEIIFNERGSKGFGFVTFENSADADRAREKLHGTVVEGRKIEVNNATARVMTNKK
Sequence,RBNS enrichment (R)
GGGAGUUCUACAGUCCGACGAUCCAGGCAGACUCAUCUCCGCAGAGCAUACCAGCCGUGGGGGACCGUUCGACUUGAUGAUGUGUGCACACUUCAGGUGGUGGGGACUUGAGCUUUAAAAAAACCUCCACAGCUGGAAUUCUCGGGUGCCAA,0.641
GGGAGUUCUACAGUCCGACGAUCUGUAAUCUUUUAUUUAAGUAGUGGGCAUUUCAUAGCUUCACAAUGUUCCUUUUUUGUAUAUUACAACAUUUAUGUGAGGUAAUUAUUGCUCAACAGACAAUUAGAAAAAAUGGAAUUCUCGGGUGCCAA,0.455
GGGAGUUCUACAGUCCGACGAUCUACCUAAAUUUUCUUAAAAAAAAAUCUAGUAUAGCACUACAUUCUUUUUUAAGUGAUGCAGACCUUAGUUUCUUUAGCCCCUUUAUUUUGAAUACAAUGCUACAUAUGAAUGGAAUUCUCGGGUGCCAA,0.835
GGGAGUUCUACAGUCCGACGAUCAAAUGGUUCAAUGAAAAACUAUAGCUAAAAUAUGUAAACCUUUCUAGGUAAACCGCUUGCCUUCAUCUUGAGUCGGAAUAUAUUUAAAUAAAUUGUGUUAUCUCUUGCCAUGGAAUUCUCGGGUGCCAA,1.19
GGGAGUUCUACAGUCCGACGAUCAGCCUUUAGGAUAGGUGAAUAUGUAAAUCUUUUAUCACUUUCUCAAAUUCAAACUAAAGGGGAAAGAUCAAACCCCUUCCCUUCCUACCUGUUUUCUGAGCUGGCUGACUUGGAAUUCUCGGGUGCCAA,0.289
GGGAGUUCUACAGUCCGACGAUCUCAACAGUAAGCAGCACCUCCAAGACUGUCUCCUUUUGGCCAAUAUCAUAAGAUGGACGCCAUAAUCCUGAGGCCUCCUAGAGGCUGAGGGGGCAACGGUGUGAUCCAGCUGGAAUUCUCGGGUGCCAA,0.228
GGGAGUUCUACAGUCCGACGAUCUCCCUUGAGACAAUAUCAUUCCCAUAUACCUCUCAUUGUCUUGGCUUUCUUAUCCAAGACGAGAAGAUAUCAGUCGGAACUGGAUUAUUCCACAGCCUUUUUAUAAACUGUGGAAUUCUCGGGUGCCAA,0.288
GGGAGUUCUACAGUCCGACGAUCGUAGAUGGAGAGAAAGUCAGAAAGAGGCAGCAGGAGAGAGGUAUACUUGGGACCAGAUCAGCUCUGCAUCCUUCAUUCUUCCCUCUGUCUCUAUUACGCAAUGUUCCGAAUGGAAUUCUCGGGUGCCAA,0.402
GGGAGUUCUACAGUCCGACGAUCGCGUUUAUUAUACAGUGGCAGAUUUCUUUAGCUGCCACAGUAAUACUCAUUCCUUGUGUGUGUCUUGGAGUGCAUUUGACUCCAGGAAAAGCCAUUUUGGUUUUCCUUAAUGGAAUUCUCGGGUGCCAA,0.54
